Measured values pooled from the literature.
Parts stem from different laboratories: compare values within a part only. ± marks the error that the study gave.

Set 1 — effect on: binding; mode: competitor
Target: HLA class I histocompatibility antigen, A alpha chain, allele A*02:01 (Homo sapiens, UniProt P04439)
Structure (SMILES) | IC50 [µM]
CC[C@H](C)[C@H](NC(=O)[C@@H](NC(=O)[C@@H](N)CCCNC(=N)N)[C@@H](C)O)C(=O)N[C@@H](CCCCN)C(=O)N[C@H](C(=O)N[C@@H](Cc1ccccc1)C(=O)N[C@H](C(=O)N[C@H](C(=O)N[C@H](C(=O)O)C(C)C)[C@@H](C)O)[C@@H](C)O)C(C)C | 0.554
CC(C)C[C@H](NC(=O)[C@H](CO)NC(=O)[C@H](CC(C)C)NC(=O)[C@@H]1CCCN1C(=O)[C@H](CO)NC(=O)CNC(=O)[C@H](CC(C)C)NC(=O)[C@@H](N)CCCNC(=N)N)C(=O)O | 16.5
CC(C)[C@H](NC(=O)[C@@H](NC(=O)[C@@H](NC(=O)[C@@H](NC(=O)[C@@H](NC(=O)CNC(=O)[C@H](CO)NC(=O)[C@@H](N)Cc1ccc(O)cc1)C(C)C)C(C)C)[C@@H](C)O)[C@@H](C)O)C(=O)O | 6.63

Further values, each from its own experiment
B1: efpA 1-530 F381A (Mycobacterium tuberculosis, UniProt P9WJY5); chain MTALNDTERAVRNWTAGRPHRPAPMRPPRSEETASERPSRYYPTWLPSRSFIAAVIAIGGMQLLATMDSTVAIVALPKIQNELSLSDAGRSWVITAYVLTFGGLMLLGGRLGDTIGRKRTFIVGVALFTISSVLCAVAWDEATLVIARLSQGVGSAIASPTGLALVATTFPKGPARNAATAVFAAMTAIGSVMGLVVGGALTEVSWRWAFLVNVPIGLVMIYLARTALRETNKERMKLDATGAILATLACTAAVFAFSIGPEKGWMSGITIGSGLVALAAAVAFVIVERTAENPVVPFHLFRDRNRLVTFSAILLAGGVMFSLTVCIGLYVQDILGYSALRAGVGFIPFVIAMGIGLGVSSQLVSRFSPRVLTIGGGYLLAGAMLYGSFFMHRGVPYFPNLVMPIVVGGIGIGMAVVPLTLSAIAGVGFDQIGPVSAIALMLQSLGGPLVLAVIQAVITSRTLYLGGTTGPVKFMNDVQLAALDHAYTYGLLWVAGAAIIVGGMALFIGYTPQQVAHAQEVKEAIDAGEL
B2: efpA 1-530 F389A (Mycobacterium tuberculosis, UniProt P9WJY5); chain MTALNDTERAVRNWTAGRPHRPAPMRPPRSEETASERPSRYYPTWLPSRSFIAAVIAIGGMQLLATMDSTVAIVALPKIQNELSLSDAGRSWVITAYVLTFGGLMLLGGRLGDTIGRKRTFIVGVALFTISSVLCAVAWDEATLVIARLSQGVGSAIASPTGLALVATTFPKGPARNAATAVFAAMTAIGSVMGLVVGGALTEVSWRWAFLVNVPIGLVMIYLARTALRETNKERMKLDATGAILATLACTAAVFAFSIGPEKGWMSGITIGSGLVALAAAVAFVIVERTAENPVVPFHLFRDRNRLVTFSAILLAGGVMFSLTVCIGLYVQDILGYSALRAGVGFIPFVIAMGIGLGVSSQLVSRFSPRVLTIGGGYLLFGAMLYGSAFMHRGVPYFPNLVMPIVVGGIGIGMAVVPLTLSAIAGVGFDQIGPVSAIALMLQSLGGPLVLAVIQAVITSRTLYLGGTTGPVKFMNDVQLAALDHAYTYGLLWVAGAAIIVGGMALFIGYTPQQVAHAQEVKEAIDAGEL
Molecule | target or system | test | test system | setting | endpoint | result
B1 (efpA 1-530 F381A) | itself | SEC |  |  | binding | binds
COc1ccc(C[C@@H]2c3cc(Oc4cc(C[C@@H]5c6cc(OC)c(OC)cc6CCN5C)ccc4O)c(OC)cc3CCN2C)cc1 | SARS-CoV-2 | virucidal activity |  | virus pre-treatment | EC50 | 36 ± 8.37 µM
B2 (efpA 1-530 F389A) | itself | SEC |  |  | binding | binds
MLEPFQILSISSFILSALHFMAWTIGALNQIKR (BM2 transmembrane domain H27A (Influenza B virus)) |  | solid-state NMR, measured: His19 | peptide, VM+ membrane pellets | membrane-bound tetramer, no drug, second protonation | pKa | 5.2
CC(C)Nc1nc2cc(Cl)c(Cl)cc2n1[C@H]1O[C@@H](CO)[C@H](O)[C@@H]1O | SARS-CoV-2 |  | Vero C1008, Omicron BA.5 | 48 h | EC90 | 12.2 ± 0.327 µM
3CLpro G11S (SARS-CoV-2) | itself | FRET peptide cleavage |  | 400 nM | maximum reaction velocity | 0.04 µM/s

Excerpt of the above (further values, each from its own experiment):
Molecule | target or system | test | test system | setting | endpoint | result
B2 (efpA 1-530 F389A) | itself | SEC |  |  | binding | binds
